Published values of several laboratories.
A part holds a random share of what one study measured.

Block 1
Target: Centromere-binding protein 1, full length, N-terminal tag (CBF1, Saccharomyces cerevisiae, UniProt P17106, residues 1-351)
Sequence of UniProt P17106 (whole entry, looked up): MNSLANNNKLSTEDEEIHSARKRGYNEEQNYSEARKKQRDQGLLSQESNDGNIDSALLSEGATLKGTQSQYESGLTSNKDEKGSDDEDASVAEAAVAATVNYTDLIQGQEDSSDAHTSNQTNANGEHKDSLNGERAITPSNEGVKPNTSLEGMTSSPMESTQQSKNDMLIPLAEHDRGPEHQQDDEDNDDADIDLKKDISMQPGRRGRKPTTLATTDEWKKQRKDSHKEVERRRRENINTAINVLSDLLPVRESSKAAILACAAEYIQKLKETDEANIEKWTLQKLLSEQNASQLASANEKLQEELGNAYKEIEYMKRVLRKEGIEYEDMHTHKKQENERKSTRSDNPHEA
Method: protein-binding microarray
Molecule type: double-stranded DNA, one strand shown
Matrix: in vitro
Concentration: 0.8 µM
Setting: whole 60-bp probe, no competitor
Direction: higher = stronger binding
| Strand | fluorescence intensity [a.u.] |
| --- | --- |
| CTAAATGATGAAAATTCTGATGCTGGTCTCTTCTTCGTCTTGATTCGCTTGACGCTGCTG | 500 |
| GAACATTTAGAGTTTCTCATCACCATCACCATATAGGTCTTGATTCGCTTGACGCTGCTG | 535 |
| TGTACGAAGCTATATATGATCACTATAGTAGTTAGGGTCTTGATTCGCTTGACGCTGCTG | 526 |

Block 2
Target: Interferon regulatory factor 5, full length, phosphomimetic (IRF5, Homo sapiens, UniProt Q13568-2, residues 1-514, S451D/S453D/S456D/S462D)
Method: protein-binding microarray
Molecule type: double-stranded DNA, one strand shown
Matrix: in vitro
Concentration: 940 nM top
Setting: 60-bp whole probe
Together with: salmon DNA 0.4 mg/ml
Reference: random background probes
Direction: higher = stronger binding
Constant ends, left off below: GCCTAGCAC … GTCTTGATTCGCTTGACGCTGCTG
| Strand | fitted relative affinity [z-score] |
| --- | --- |
| TCAAGTTTCTCTTTCCTACTGTGCTAG | 4.35 |
| TTAGGACTGGGGACTGGGTTGGTGCTA | -0.258 |
| TCATTTCCCACTTTCAGACTGTGCTAG | 1.75 |
| GAAGGACTGGGTTTCGGGACGTGCTAG | 1.88 |
| TTAGAACTGAGTCGCGATTAGTGCTAG | 0.0446 |

Block 3
Target: Histone acetyltransferase KAT6A, winged helix 1, GST fusion (KAT6A, Homo sapiens, UniProt Q92794, residues 1-85)
Method: protein binding microarray
Molecule type: double-stranded DNA, one strand shown
Matrix: in vitro
Concentration: not given
Setting: 8-mer, flanks averaged, mean of 2 arrays, mostly near background
Reference: not given
Direction: higher = stronger binding
Residues (chain): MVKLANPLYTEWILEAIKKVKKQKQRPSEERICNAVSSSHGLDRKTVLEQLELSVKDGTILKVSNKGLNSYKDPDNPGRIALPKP
| Strand | E-score |
| --- | --- |
| GATTGCGA | 0.14 |
| GTGTGAAA | -0.158 |
| TAGGCAGA | -0.117 |

Single results of other studies
| Molecule | target | assay | system | conditions | scale | endpoint | value |
| --- | --- | --- | --- | --- | --- | --- | --- |
| PhoQ, residues 284 288 289 292 302 303 SCCLKL | PhoP, residues 12 14 15 18 19 GQALL (Escherichia coli, UniProt P23836) | Sort-seq, refers to: YFP reporter | E. coli | PhoQ-PhoP variant library, together with: 10 µM Mg2+ | reference: high Mg2+ state, higher = stronger signaling | fold induction | 9.07 |

Some of these lines once more (block 2):
| Strand | fitted relative affinity [z-score] |
| --- | --- |
| TCAAGTTTCTCTTTCCTACTGTGCTAG | 4.35 |
| TTAGGACTGGGGACTGGGTTGGTGCTA | -0.258 |
